Measurements pooled from the literature.
Compare with care: the assays were run in different laboratories. ± marks the error that the study gave.

SMILES | test | test system | conditions | AUC(0-inf)
CC[C@@]1(O)C(=O)OCc2c1cc1n(c2=O)Cc2cc3c(CN(C)C)c(O)ccc3nc2-1 | – | human patients, plasma | oral, 2.5 mg daily for 5 days, day 5 cycle 2, geometric mean, added: pazopanib 800 mg daily | 0.0532 µg·h/mL
Cc1ncc2n1-c1ccc(Cl)cc1C(c1ccccc1F)=NC2 | – | healthy human, plasma | oral, 2 mg, added: efavirenz 50 mg, no ritlecitinib | 0.0204 µg·h/mL
Cc1ncc2n1-c1ccc(Cl)cc1C(c1ccccc1F)=NC2 | – | human, plasma | oral, 2 mg, geometric mean, added: fenebrutinib 200 mg twice daily | 0.0397 µg·h/mL
Cc1ncc(OC[C@@]2(c3cccc(F)c3)C[C@H]2C(=O)Nc2ccc(F)cn2)c(C)n1 | – | human, plasma | 10 mg, alone, mean | 0.39 µg·h/mL
CN[C@@H]1C[C@H]2O[C@@](C)([C@@H]1OC)n1c3ccccc3c3c4c(c5c6ccccc6n2c5c31)C(=O)N[C@@H]4O | – | human patients | intravenous infusion, 24 mg/m^2/24 h, 72 h infusion, cycle 1, mean, added: prednisone | 8430 µg·h/mL
O=c1[nH]c(Cc2ccccn2)nc2c1cnn2C1CCOCC1 | – | healthy male human, plasma | oral, 10 mg, geometric mean | 0.476 µM·h
Oc1ccc2cc3ccc4cccc5ccc(c2c1)c3c45 | UPLC-AMS | human, plasma | oral, 250 ng of [14C]-BaP | 65 ± 64.9 fg BaP equivalents·h/mL
CCCCCOc1ccc(-c2ccc(-c3ccc(C(=O)N[C@H]4C[C@@H](O)[C@@H](OCC[N+](C)(C)C)NC(=O)[C@@H]5[C@@H](O)[C@@H](C)CN5C(=O)[C@H]([C@@H](C)O)NC(=O)[C@H]([C@H](O)[C@@H](O)c5ccc(O)cc5)NC(=O)[C@@H]5C[C@@H](O)CN5C(=O)[C@H]([C@@H](C)O)NC4=O)cc3)cc2)cc1 | – | healthy adult humans, plasma | subcutaneous, 10 mg, geometric mean | 39.2 µg·h/mL
COc1ccsc1CNCC[C@@]1(c2ccccn2)CCOC2(CCCC2)C1 | – | healthy human, normal renal function, plasma | intravenous, 1 mg single dose, geometric mean | 0.0181 µg·h/mL
COc1ccc(C[C@@H]2NC(=O)[C@H]([C@@H](C)O)NC(=O)[C@@H]3[C@@H]4CCN3C(=O)[C@@H]3Cc5cn(c6ccc(F)cc56)CCCCCCN(Cc5ccc(cc5)CCNC(=O)[C@]5(C)CCCN5C2=O)C(=O)CCC(=O)N[C@@H](C)C(=O)N[C@H](CNC(=O)CCCCC[N+](C)(C)C)C(=O)N[C@@H](Cc2cccc(c2)CNC(=O)CO4)C(=O)N3)cc1 | – | fasted healthy humans, plasma | oral, 300 mg single dose, with 1800 mg Labrasol, geometric mean | 2.26 µM·h
O[C@H]1CCCN[C@@H]1CCCn1cnc2c(Cl)c(Cl)ccc21 | – | human, plasma | oral, 100 mg single dose, solution, geometric mean | 0.293 µg·h/mL
Oc1ccc2ccc3c4ccccc4cc4ccc1c2c43 | UPLC-AMS | human, plasma | oral, 50 ng of [14C]-BaP | 11 ± 6.38 fg BaP equivalents·h/mL
Cc1ncc2n1-c1ccc(Cl)cc1C(c1ccccc1F)=NC2 | – | healthy human volunteers, plasma | oral, 5 mg single dose, geometric mean, added: water | 0.215 µM·h
CC[C@H](C)[C@H](NC(=O)[C@H](CC(C)C)NC(=O)[C@H](Cc1c[nH]c2ccccc12)NC(=O)[C@H](CCC(N)=O)NC(=O)[C@@H](NC(=O)[C@H](Cc1ccccc1)NC(=O)[C@H](C)NC(=O)[C@H](CCCCNC(=O)COCCOCCNC(=O)COCCOCCNC(=O)CC[C@H](NC(=O)CCCCCCCCCCCCCCCCCCC(=O)O)C(=O)O)NC(=O)[C@H](CCC(N)=O)NC(=O)[C@H](C)NC(=O)[C@@H](NC(=O)[C@H](CCCCN)NC(=O)[C@H](CC(=O)O)NC(=O)[C@H](CC(C)C)NC(=O)C(C)(C)NC(=O)[C@@H](NC(=O)[C@H](CO)NC(=O)[C@H](Cc1ccc(O)cc1)NC(=O)[C@H](CC(=O)O)NC(=O)[C@H](CO)NC(=O)[C@@H](NC(=O)[C@H](Cc1ccccc1)NC(=O)[C@@H](NC(=O)CNC(=O)[C@H](CCC(=O)O)NC(=O)C(C)(C)NC(=O)[C@@H](N)Cc1ccc(O)cc1)[C@@H](C)O)[C@@H](C)O)[C@@H](C)CC)[C@@H](C)CC)C(C)C)C(=O)N[C@@H](C)C(=O)NCC(=O)NCC(=O)N1CCC[C@H]1C(=O)N[C@@H](CO)C(=O)N[C@@H](CO)C(=O)NCC(=O)N[C@@H](C)C(=O)N1CCC[C@H]1C(=O)N1CCC[C@H]1C(=O)N1CCC[C@H]1C(=O)N[C@@H](CO)C(N)=O | – | human, severe renal impairment, no dialysis, plasma | subcutaneous, 5 mg single dose, eGFR < 30, geometric mean | 83 µg·h/mL
CC[C@H](C)[C@H](NC(=O)[C@H](CC(C)C)NC(=O)[C@H](Cc1c[nH]c2ccccc12)NC(=O)[C@H](CCC(N)=O)NC(=O)[C@@H](NC(=O)[C@H](Cc1ccccc1)NC(=O)[C@H](C)NC(=O)[C@H](CCCCNC(=O)COCCOCCNC(=O)COCCOCCNC(=O)CC[C@H](NC(=O)CCCCCCCCCCCCCCCCCCC(=O)O)C(=O)O)NC(=O)[C@H](CCC(N)=O)NC(=O)[C@H](C)NC(=O)[C@@H](NC(=O)[C@H](CCCCN)NC(=O)[C@H](CC(=O)O)NC(=O)[C@H](CC(C)C)NC(=O)C(C)(C)NC(=O)[C@@H](NC(=O)[C@H](CO)NC(=O)[C@H](Cc1ccc(O)cc1)NC(=O)[C@H](CC(=O)O)NC(=O)[C@H](CO)NC(=O)[C@@H](NC(=O)[C@H](Cc1ccccc1)NC(=O)[C@@H](NC(=O)CNC(=O)[C@H](CCC(=O)O)NC(=O)C(C)(C)NC(=O)[C@@H](N)Cc1ccc(O)cc1)[C@@H](C)O)[C@@H](C)O)[C@@H](C)CC)[C@@H](C)CC)C(C)C)C(=O)N[C@@H](C)C(=O)NCC(=O)NCC(=O)N1CCC[C@H]1C(=O)N[C@@H](CO)C(=O)N[C@@H](CO)C(=O)NCC(=O)N[C@@H](C)C(=O)N1CCC[C@H]1C(=O)N1CCC[C@H]1C(=O)N1CCC[C@H]1C(=O)N[C@@H](CO)C(N)=O | – | human, normal hepatic function, plasma | subcutaneous, 5 mg single dose, geometric LS mean, weight-adjusted | 87.5 µg·h/mL

Repeated from above:
SMILES | test | test system | conditions | AUC(0-inf)
Cc1ncc2n1-c1ccc(Cl)cc1C(c1ccccc1F)=NC2 | – | healthy human volunteers, plasma | oral, 5 mg single dose, geometric mean, added: water | 0.215 µM·h
CC[C@H](C)[C@H](NC(=O)[C@H](CC(C)C)NC(=O)[C@H](Cc1c[nH]c2ccccc12)NC(=O)[C@H](CCC(N)=O)NC(=O)[C@@H](NC(=O)[C@H](Cc1ccccc1)NC(=O)[C@H](C)NC(=O)[C@H](CCCCNC(=O)COCCOCCNC(=O)COCCOCCNC(=O)CC[C@H](NC(=O)CCCCCCCCCCCCCCCCCCC(=O)O)C(=O)O)NC(=O)[C@H](CCC(N)=O)NC(=O)[C@H](C)NC(=O)[C@@H](NC(=O)[C@H](CCCCN)NC(=O)[C@H](CC(=O)O)NC(=O)[C@H](CC(C)C)NC(=O)C(C)(C)NC(=O)[C@@H](NC(=O)[C@H](CO)NC(=O)[C@H](Cc1ccc(O)cc1)NC(=O)[C@H](CC(=O)O)NC(=O)[C@H](CO)NC(=O)[C@@H](NC(=O)[C@H](Cc1ccccc1)NC(=O)[C@@H](NC(=O)CNC(=O)[C@H](CCC(=O)O)NC(=O)C(C)(C)NC(=O)[C@@H](N)Cc1ccc(O)cc1)[C@@H](C)O)[C@@H](C)O)[C@@H](C)CC)[C@@H](C)CC)C(C)C)C(=O)N[C@@H](C)C(=O)NCC(=O)NCC(=O)N1CCC[C@H]1C(=O)N[C@@H](CO)C(=O)N[C@@H](CO)C(=O)NCC(=O)N[C@@H](C)C(=O)N1CCC[C@H]1C(=O)N1CCC[C@H]1C(=O)N1CCC[C@H]1C(=O)N[C@@H](CO)C(N)=O | – | human, severe renal impairment, no dialysis, plasma | subcutaneous, 5 mg single dose, eGFR < 30, geometric mean | 83 µg·h/mL
